Measurements pooled from the literature.
Parts stem from different laboratories: compare values within a part only.

Series 1 — method: protein binding microarray; molecule type: double-stranded DNA, one strand shown; sample: in vitro; concentration: not given; baseline: not given; reading: higher = stronger binding; quantity: E-score
Target: Histone acetyltransferase KAT6A, winged helix 1, GST fusion (KAT6A, Homo sapiens, UniProt Q92794, residues 1-85)
Setting: 8-mer, flanks averaged, mean of 2 arrays, mostly near background
Residues (chain): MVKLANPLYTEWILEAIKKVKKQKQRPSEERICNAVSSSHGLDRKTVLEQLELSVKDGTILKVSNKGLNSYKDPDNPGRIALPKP
CGCCACAC: 0.19
ATTGAAGC: -0.0327
AACTATTG: 0.0104
ACCGGGGG: 0.267

Series 2 — method: universal PBM; molecule type: double-stranded DNA, one strand shown; sample: in vitro; concentration: not given; reading: higher = stronger binding; quantity: E-score
Target: Sal-like protein 4, full length isoform B (SALL4, Homo sapiens, UniProt Q9UJQ4-2, residues 1-616)
Setting: 8-mer, flanks averaged, mean of replicates
Residues (chain): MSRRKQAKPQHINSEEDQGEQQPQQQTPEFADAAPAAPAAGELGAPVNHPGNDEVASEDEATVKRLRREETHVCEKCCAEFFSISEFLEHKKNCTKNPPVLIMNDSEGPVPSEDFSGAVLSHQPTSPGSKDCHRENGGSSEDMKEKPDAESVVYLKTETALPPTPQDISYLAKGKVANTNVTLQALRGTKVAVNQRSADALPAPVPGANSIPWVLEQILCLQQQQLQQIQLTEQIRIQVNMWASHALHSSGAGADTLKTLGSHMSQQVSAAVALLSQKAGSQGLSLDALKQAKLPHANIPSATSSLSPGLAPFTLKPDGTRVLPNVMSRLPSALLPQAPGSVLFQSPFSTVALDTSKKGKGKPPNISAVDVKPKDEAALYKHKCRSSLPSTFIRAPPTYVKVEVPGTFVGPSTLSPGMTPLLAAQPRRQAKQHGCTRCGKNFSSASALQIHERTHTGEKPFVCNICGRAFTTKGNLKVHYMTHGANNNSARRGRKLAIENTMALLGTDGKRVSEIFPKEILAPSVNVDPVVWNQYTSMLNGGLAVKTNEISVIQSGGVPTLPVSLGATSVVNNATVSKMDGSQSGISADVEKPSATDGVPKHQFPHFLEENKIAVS
ACCATGAG: -0.0122
CGACAAGA: -0.00885
ACGGGCAC: -0.276
ACAACATC: 0.186

Series 3 — method: protein-binding microarray; molecule type: double-stranded DNA, one strand shown; sample: in vitro; concentration: 2540 nM top; setting: 60-bp whole probe; added: salmon DNA 0.4 mg/ml; baseline: random background probes; reading: higher = stronger binding; quantity: fitted relative affinity
Target: Interferon regulatory factor 3, full length, phosphomimetic (IRF3, Homo sapiens, UniProt Q14653, residues 1-427, S386D/S396D/S398D/S402D/T404D/S405D)
Sequence of UniProt Q14653 (whole entry, unmodified, looked up): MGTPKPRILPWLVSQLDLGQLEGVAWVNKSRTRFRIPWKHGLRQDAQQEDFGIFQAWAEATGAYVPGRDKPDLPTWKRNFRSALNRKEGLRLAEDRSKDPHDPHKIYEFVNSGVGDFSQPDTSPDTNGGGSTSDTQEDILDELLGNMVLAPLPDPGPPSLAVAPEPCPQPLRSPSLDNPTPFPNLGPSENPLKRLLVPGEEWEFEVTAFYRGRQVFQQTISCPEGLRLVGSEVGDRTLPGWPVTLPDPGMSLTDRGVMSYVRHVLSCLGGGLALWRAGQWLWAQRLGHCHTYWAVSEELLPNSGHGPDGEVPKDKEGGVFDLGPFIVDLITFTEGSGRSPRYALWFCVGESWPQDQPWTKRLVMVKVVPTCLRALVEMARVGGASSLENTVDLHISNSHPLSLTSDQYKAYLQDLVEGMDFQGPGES
GCCTAGCACTCAAATTTGGAAACCGAACTGTGCTAGGTCTTGATTCGCTTGACGCTGCTG: 1.53 z-score
GCCTAGCACTTATAACTGAGTTTCGATTAGTGCTAGGTCTTGATTCGCTTGACGCTGCTG: 2.75 z-score
GCCTAGCACTTAGGACTGTGGTTTCGGTTAGTGCTAGTCTTGATTCGCTTGACGCTGCTG: 3.47 z-score
GCCTAGCACTCACTTTTCTTTTCTTTACTGTGCTAGGTCTTGATTCGCTTGACGCTGCTG: 5.65 z-score

Other studies, line by line
PhoQ, residues 284 288 289 292 302 303 AAQSYM  fold induction (PhoP, residues 12 14 15 18 19 NHFRA (Escherichia coli, UniProt P23836); Sort-seq, refers to: YFP reporter; E. coli; PhoQ-PhoP variant library, added: 10 µM Mg2+; baseline: high Mg2+ state, higher = stronger signaling): 3.32

For quick reference, copied from above (series 1):
AACTATTG: 0.0104
